Measured values gathered from unrelated publications.
Each line is one published result; not all experiments were run side by side. ± marks the error that the study gave.

SMILES	target or system	assay	test system	conditions	how to read	quantity	result
CC[C@H](C)[C@@H]1NC(=O)[C@H](CC(=O)O)NC(=O)[C@H]([C@@H](C)O)NC(=O)[C@@H]2CSSC[C@@H]3NC(=O)[C@H](CC(C)C)NC(=O)[C@H](CC(N)=O)NC(=O)[C@H](CC(C)C)NC(=O)[C@H](CCCNC(=N)N)NC(=O)[C@H](Cc4ccc(O)cc4)NC(=O)[C@H](CCCCN)NC(=O)[C@H](CCSC)NC(=O)[C@H](CO)NC(=O)[C@H]([C@@H](C)O)NC(=O)[C@H](CCCNC(=N)N)NC(=O)[C@H](CSSC[C@H](NC(=O)[C@H]([C@@H](C)O)NC(=O)[C@H](CCCCN)NC(=O)[C@H](CCCNC(=N)N)NC3=O)C(=O)NCC(=O)N[C@@H](CO)C(=O)N[C@H](C(=O)O)CSSC[C@H](NC(=O)[C@@H](NC(=O)[C@@H](N)CCCNC(=N)N)[C@@H](C)O)C(=O)N[C@@H](CCCCN)C(=O)N[C@@H](CC(=O)O)C(=O)N[C@@H](CC(C)C)C(=O)N[C@@H]([C@@H](C)CC)C(=O)N3CCC[C@H]3C(=O)N[C@@H](C(C)C)C(=O)N[C@@H](CO)C(=O)N[C@@H](CCC(=O)O)C(=O)N2)NC(=O)[C@H](CCCNC(=N)N)NC1=O	KcsA-Shaker chimera channel	two-electrode voltage clamp	Xenopus oocytes	30 nM, after TEA washout		association time constant	27 ± 3 s
Nc1ccn(C2CCC(OC(C(=O)O)P(=O)(O)O)C2)c(=O)n1 (racemic)	HIV-1 reverse transcriptase K65R	enzyme activity, inhibitor		added: poly(rI)·oligo(dC), [3H]dCTP	reference: mutant over wild type	fold resistance	1.6 fold
Cc1ccc(NS(=O)(=O)c2c(C(=O)N3CCCCCC3)c(C)n(C)c2C)c(Cl)c1	Monkeypox virus		Vero C1008, wild type	3.33 µM, 72 h	reference: untreated	relative infection	0%
CC(C)N1CCn2cc(C(=O)NCc3ccc(F)cc3F)c(=O)c(O)c2C1=O	human immunodeficiency virus 1	single-round vector infection	integrase N155H			EC50	3.6 ± 0.9 nM
Cc1cc(/C=C/C#N)cc(C)c1Nc1nc(Nc2ccc(C#N)cc2)ncc1N	HIV-1	viral replication, single-round infection	RT mutant E138K/M184I			EC50	2.9 ± 0.6 nM
CC[C@H](C)[C@H](NC(=O)[C@H](CCCCN)NC(=O)[C@H](CCCCN)NC(=O)[C@H](CC(C)C)NC(=O)[C@H](Cc1c[nH]c2ccccc12)NC(=O)CN)C(=O)NCC(=O)N[C@@H](CCCCN)C(=O)N[C@@H](CCCCN)C(=O)N[C@H](C(=O)N[C@@H](CCC(=O)O)C(=O)N[C@@H](CCCNC(=N)N)C(=O)N[C@H](C(=O)NCC(=O)N[C@@H](CCC(N)=O)C(=O)N[C@@H](Cc1c[nH]cn1)C(=O)N[C@H](C(=O)N[C@@H](CCCNC(=N)N)C(=O)N[C@@H](CC(=O)O)C(=O)N[C@@H](C)C(=O)N[C@H](C(=O)N[C@H](C(=O)N[C@@H](CCC(N)=O)C(=O)N[C@H](C(=O)N[C@H](C(=O)NCC(=O)N[C@H](C(=O)N[C@@H](C)C(=O)N[C@@H](CCC(N)=O)C(=O)N[C@@H](CCC(N)=O)C(=O)N[C@@H](C)C(=O)N[C@@H](C)C(=O)N[C@@H](CC(N)=O)C(=O)N[C@H](C(=O)N[C@@H](C)C(=O)N[C@@H](C)C(=O)N[C@H](C(=O)N[C@@H](CC(C)C)C(=O)N[C@@H](CCCCN)C(N)=O)[C@@H](C)O)C(C)C)C(C)C)[C@@H](C)CC)[C@@H](C)O)[C@@H](C)CC)[C@@H](C)O)[C@@H](C)O)C(C)C)[C@@H](C)CC	Pseudomonas aeruginosa		ATCC 27853, CAMHB with 10% mouse serum			MIC	128 µg/mL
CC(C)C[C@H](NC(=O)[C@@H]1CCCN1C(=O)[C@@H]1CCCN1C(=O)[C@H](CCCNC(=N)N)NC(=O)[C@H](CCCNC(=N)N)NC(=O)[C@H](CCCNC(=N)N)NC(=O)[C@H](CCC(N)=O)NC(=O)[C@H](CCCNC(=N)N)NC(=O)[C@H](CCCNC(=N)N)NC(=O)[C@H](CCCCN)NC(=O)[C@H](CCCCN)NC(=O)[C@H](CCCNC(=N)N)NC(=O)CNC(=O)[C@@H](N)Cc1ccc(O)cc1)C(=O)N[C@@H](CCCNC(=N)N)C(=O)N[C@@H](CCCCN)C(=O)N[C@@H](CCCCN)C(=O)N[C@@H](CCCCN)C(=O)N[C@@H](CCCCN)C(=O)N[C@@H](CCCCN)C(=O)N[C@@H](Cc1c[nH]cn1)C(N)=O		8-Br-cGMP-induced vasodilation	mouse, mesenteric resistance arteries	dose not given, intraluminal perfusion, 80 mmHg, added: 8-Br-cGMP		inhibition	~30%
CCCCCCCCCCCCCCCC(=O)N[C@@H](CCC(=O)NCCOCCOCCC(=O)NCCOCCOCCC(=O)NCCCC[C@H](NC(=O)[C@H](CC(=O)O)NC(=O)[C@H](CC(C)C)NC(=O)[C@H](Cc1ccc(O)cc1)NC(=O)[C@H](CCCCN)NC(=O)[C@H](CO)NC(=O)[C@H](Cc1ccc(O)cc1)NC(=O)[C@H](CC(=O)O)NC(=O)[C@H](CO)NC(=O)[C@@H](NC(=O)[C@H](Cc1ccccc1)NC(=O)[C@@H](NC(=O)CNC(=O)[C@H](CCC(N)=O)NC(=O)[C@@H](CO)NC(=O)[C@@H](N)Cc1c[nH]cn1)[C@@H](C)O)[C@@H](C)O)C(=O)N[C@@H](CCCNC(=N)N)C(=O)N[C@@H](CCCNC(=N)N)C(=O)N[C@@H](C)C(=O)N[C@@H](CCC(N)=O)C(=O)N[C@@H](CC(=O)O)C(=O)N[C@@H](Cc1ccccc1)C(=O)N[C@H](C(=O)N[C@@H](CCC(N)=O)C(=O)N[C@@H](Cc1c[nH]c2ccccc12)C(=O)N[C@@H](CC(C)C)C(=O)N[C@@H](CCSC)C(=O)N[C@@H](CC(N)=O)C(=O)N[C@H](C(=O)NCC(=O)NCC(=O)N1CCC[C@H]1C(=O)N[C@@H](CO)C(=O)N[C@@H](CO)C(=O)NCC(=O)N[C@@H](C)C(=O)N1CCC[C@H]1C(=O)N1CCC[C@H]1C(=O)N1CCC[C@H]1C(=O)N[C@@H](CO)C(N)=O)[C@@H](C)O)C(C)C)C(=O)O	LX-2	agonist, Western blot		200 µM, 48 h		α-SMA protein level	decreased
Cc1cc(/C=C/C#N)cc(C)c1-n1cnc2cnc(Nc3ccc(C#N)cc3)nc21	HIV-1	viral replication, single-round infection	RT mutant K101P			EC50	4.9 ± 2.2 nM
CC(C)n1ccn2cc(C(=O)NCc3ccc(F)cc3F)c(=O)c(O)c2c1=O	HIV-1	viral replication, single-round vector infection	IN L74M/G140C/Q148R			EC50	158 ± 22.1 nM
CC[C@H](C)[C@H](NC(=O)[C@H](CCCCN)NC(=O)[C@H](Cc1ccc(O)cc1)NC(=O)[C@H](CCC(N)=O)NC(=O)[C@H](Cc1c[nH]cn1)NC(=O)[C@@H](NC(=O)[C@H](Cc1ccccc1)NC(=O)[C@H](Cc1c[nH]cn1)NC(=O)[C@@H](NC(=O)[C@@H](NC(=O)CNC(=O)[C@H](CCCNC(=N)N)NC(=O)[C@H](Cc1c[nH]c2ccccc12)NC(=O)[C@H](CC(C)C)NC(=O)[C@H](CO)NC(=O)[C@H](CCC(=O)O)NC(=O)[C@H](CC(C)C)NC(=O)[C@H](CCC(=O)O)NC(=O)[C@H](CC(N)=O)NC(=O)[C@H](CC(C)C)NC(=O)[C@H](CC(=O)O)NC(=O)[C@H](CO)NC(=O)[C@H](CCC(=O)O)NC(=O)[C@@H](NC(=O)[C@H](CC(C)C)NC(=O)[C@H](CCC(N)=O)NC(=O)[C@H](CCC(=O)O)NC(=O)[C@H](CCC(=O)O)NC(=O)[C@H](CC(C)C)NC(=O)[C@@H]1CCCN1C(=O)[C@@H](N)Cc1ccccc1)[C@@H](C)O)[C@@H](C)O)[C@@H](C)O)C(C)C)C(=O)N[C@@H](CCSC)C(=O)N1CCC[C@H]1C(=O)N[C@@H](Cc1ccccc1)C(=O)N[C@@H](CCCNC(=N)N)C(=O)N[C@@H](CCCCN)C(=O)N[C@@H](CC(C)C)C(=O)N[C@H](C(=O)N[C@@H](Cc1ccccc1)C(=O)N[C@@H](CCCCN)C(=O)N[C@@H](CCCNC(=N)N)C(=O)N[C@@H](CCCNC(=N)N)C(=O)N[C@@H](CCCCN)C(=O)N[C@@H](CC(N)=O)C(N)=O)C(C)C	Escherichia coli	broth microdilution	ATCC 35218			MIC	> 50 µM
O=C(NCc1ccc(F)cc1F)c1cn2ccn(CCCCCO)c(=O)c2c(O)c1=O	human immunodeficiency virus 1	single-round vector infection	integrase N155H			EC50	33.3 ± 8.8 nM
N=C(N)NCc1cn([C@@H]2[C@@H](OCCn3cc(COCCOCCOCCn4cc(-c5cc(OCCOCCO)c(C#Cc6cc(OCCOCCO)c(C#Cc7cc(OCCOCCO)c(-c8cn(CCOCCOCCOCc9cn(CCO[C@H]%10O[C@H](CO)[C@@H](O)[C@H](O)[C@@H]%10n%10cc(CNC(=N)N)nn%10)nn9)nn8)cc7OCCOCCO)cc6OCCOCCO)cc5OCCOCCO)nn4)nn3)O[C@H](CO)[C@@H](O)[C@@H]2O)nn1	DC-SIGN (human)	viral trans-infection	Jurkat expressing DC-SIGN, Severe acute respiratory syndrome coronavirus 2	rVSV-luc pseudovirus		IC50	> 100000 nM
CC[C@H](C)[C@H](NC(=O)[C@H](Cc1ccccc1)NC(=O)[C@@H](NC(=O)[C@@H](NC(=O)[C@H](CC(C)C)NC(=O)[C@H](CCCCN)NC(=O)[C@@H](N)CCCCN)[C@@H](C)CC)[C@@H](C)O)C(=O)N[C@@H](CC(C)C)C(=O)N[C@@H](CCCCN)C(=O)N[C@@H](CCCCN)C(=O)N[C@H](C(=O)N[C@@H](CCCNC(=N)N)C(=O)N[C@@H](CCC(=O)O)C(=O)N[C@@H](CCCCN)C(=O)N[C@@H](CCCCN)C(=O)N[C@@H](CCCCN)C(=O)N[C@@H](CCC(=O)O)C(=O)N[C@@H](CS)C(=O)N[C@@H](CC(C)C)C(=O)N[C@H](C(=O)O)C(C)C)[C@@H](C)O	TTX-sensitive sodium channel	resurgent sodium current, open-channel blocker, whole-cell patch clamp	mouse hippocampal CA3 neurons	200 µM intracellular, 22 °C		time to peak	5 ± 0.3 ms
COCCCN1CCn2cc(C(=O)NCc3ccc(F)cc3F)c(=O)c(O)c2C1=O	human immunodeficiency virus 1	single-round vector infection	integrase G140S/Q148H			EC50	191 ± 15.1 nM
